Results of several laboratories.
Compare with care: the assays were run in different laboratories. ± marks the error that the study gave. In brackets after ≈: the same amount, converted by molar mass. Where no end group is shown, it is not given here.

For `CC(=O)OC[C@]12Oc3ccc(-c4ccc(O)c5c4O[C@@]4(COC(C)=O)C(=C(O)C[C@@H](C)[C@H]4OC(C)=O)C5=O)c(O)c3C(=O)C1=C(O)C[C@@H](C)[C@H]2OC(C)=O`, the mycelial growth was 1.7 ± 0.3 cm (Phyllosticta citricarpa; PDA plates; 10000 µg/mL, 504 h).
For `LSTFFRLFNGRRRRSVQWCA`, biofilm growth read “no effect” (Streptococcus gordonii; OD600; peptide, ATCC 10558, 4 h single-species biofilm; 128 µg/ml, 5 min exposure, OD600 read over 5 h).
With `CCCCCCCOc1c(OC)cc(NC(C)CCCN)c2nc(C(C)(C)C)ccc12` (stereo not shown) the IC50 was 2.36 µg/mL (≈ 5.49 µM) (Staphylococcus aureus; microbial growth; ATCC33591 MRSA; drug-resistant strain).
`C=CCc1ccc(OC(=O)c2ccc([N+](=O)[O-])cc2)c(OC)c1` gave an LD50 of 2030 mg/kg (Spodoptera frugiperda; insecticidal activity; larvae; topical).
`Cc1ccccc1-c1nc(CN2CCC(C(=O)NCCN3CCOCC3)CC2)c(C)o1` gave a maximal response of -27.8% (Hepatitis C virus; HCV infection, Gaussia luciferase reporter; Huh7.5.1 reporter cells; reference: 10 µM cyclosporin A, DMSO, negative means inhibition).
`TAVDHVFLRF-NH2 (C-amide)` has an inhibition of 100% (Drosophila melanogaster; gut contraction; adult gut; 1 µM, within 10 min; reference: DMS effect).
`YIRF-OH`: “change in mobility” 1.5 ± 2.05% (Schistosoma mansoni; EthoVision motion tracking; peptide, adult worm pairs; 10 µM, 5 min, 37 °C; reference: pretreatment mobility).
`CCCCCOc1c(OC)cc(NC(C)CCCNC(=O)C(N)Cc2cc3ccccc3[nH]2)c2nc(C(C)(C)C)ccc12` (stereo not shown) has an MBC of 10 µg/mL (≈ 17 µM) (Staphylococcus aureus; microbial killing; ATCC33591 MRSA; drug-resistant strain).
`CP(=O)(O)CCC(N)C(=O)O` (stereo not shown) gave a herbicidal activity of 100% (Setaria faberi; 125 g/ha, 13 days, SETFA, post-emergence spray; reference: untreated (0%), complete kill (100%)).
For `TRTRVSRLY`, the viral yield was 66.2% (rhesus rotavirus; peptide, mouse cholangiocytes; 1 mM, 18 h, 37 °C; reference: medium control).
`CCCCCCOc1c(OC)cc(NC(C)CCCN)c2nc(C(C)(C)C)cc(C)c12` (stereo not shown) gave an IC50 of 2.75 µg/mL (≈ 6.4 µM) (Staphylococcus aureus; microbial growth; ATCC33591 MRSA; drug-resistant strain).
`MRTRVSGLY` — result for viral yield: “no effect” (rhesus rotavirus; viral replication; peptide, mouse cholangiocytes; 1 mM, cell pretreatment with peptide; reference: serum-free medium).
The infectivity of `CC[C@H](C)[C@H](NC(=O)[C@H](CCCCN)NC(=O)[C@H](CCC(=O)O)NC(=O)[C@H](CCCCN)NC(=O)[C@H](CO)NC(=O)[C@H](CCCCN)NC(=O)[C@H](CCCNC(=N)N)NC(=O)[C@H](Cc1ccccc1)NC(=O)[C@H](Cc1ccccc1)NC(=O)[C@H](CC(=O)O)NC(=O)CNC(=O)[C@H](CC(C)C)NC(=O)[C@@H](N)CC(C)C)C(=O)NCC(=O)N[C@@H](CCCCN)C(=O)N[C@@H](CCC(=O)O)C(=O)N[C@@H](Cc1ccccc1)C(=O)N[C@@H](CCCCN)C(=O)N[C@@H](CCCNC(=N)N)C(=O)N[C@H](C(=O)N[C@H](C(=O)N[C@@H](CCC(N)=O)C(=O)N[C@@H](CCCNC(=N)N)C(=O)N[C@H](C(=O)N[C@@H](CCCCN)C(=O)N[C@@H](CC(=O)O)C(=O)N[C@@H](Cc1ccccc1)C(=O)N[C@@H](CC(C)C)C(=O)N[C@@H](CCCNC(=N)N)C(=O)N[C@@H](CC(N)=O)C(=O)N[C@@H](CC(C)C)C(=O)N[C@H](C(=O)N1CCC[C@H]1C(=O)N[C@@H](CCCNC(=N)N)C(=O)N[C@H](C(=O)N[C@@H](CCC(=O)O)C(=O)N[C@@H](CO)C(=O)O)[C@@H](C)O)C(C)C)[C@@H](C)CC)C(C)C)[C@@H](C)CC` is reported as 58.8% (hepatitis B virus genotype C; NanoLuc reporter virus; HepG2-NTCP; 10 µM, 7 d, producer cells treated; reference: control treated).

Some of these lines once more:
For `TRTRVSRLY`, the viral yield was 66.2% (rhesus rotavirus; peptide, mouse cholangiocytes; 1 mM, 18 h, 37 °C; reference: medium control).
`CCCCCCOc1c(OC)cc(NC(C)CCCN)c2nc(C(C)(C)C)cc(C)c12` (stereo not shown) gave an IC50 of 2.75 µg/mL (≈ 6.4 µM) (Staphylococcus aureus; microbial growth; ATCC33591 MRSA; drug-resistant strain).
